Results pooled from the literature.
Protocols differ between the studies behind these lines. ± marks the error that the study gave.

SMILES = COc1ccc(S(=O)(=O)N(CC(=O)O)c2c(C)c(C)c(N(CC(=O)O)S(=O)(=O)c3cccnc3)c(C)c2C)cc1; target or system = H9c2; assay = ELISA; conditions = 10 µM, added: LPS 1 µg/mL; endpoint = IL-6 secretion; value = decreased
SMILES = O=Cc1c(O)ccc2ccccc12; target or system = HUVEC; assay = RNA sequencing, refers to: EMCN; conditions = 75 µM, 24 h; scale = baseline: DMSO; endpoint = log2 fold change; value = -3.4
SMILES = O=c1c(/C=N/NC(=S)N/N=C/c2cc(Cl)ccc2O)coc2ccccc12; target or system = HeLa; assay = Western blot, refers to: phospho-ERK1/2; conditions = 0.1 µM, 24 h; endpoint = reduction in ERK1/2 phosphorylation; value = ~10%
SMILES = O=C(/C=C/c1coc2ccccc2c1=O)N1CCN(C(=S)SCc2ccccc2)CC1; target or system = tomato spotted wilt virus; assay = viral infection, half-leaf method; test system = Nicotiana glutinosa; conditions = 500 µg/mL; endpoint = protective effect; value = 47.2 ± 5.8%
SMILES = CN1C(=O)[C@@H](Cc2ccc(O)cc2)NC(=O)CNC(=O)[C@H](Cc2ccc3ccccc3c2)NC(=O)[C@H](CCCNC(=N)N)NC(=O)[C@H]1CCCNC(=O)c1ccc(CNC(=O)CN2CCN(CC(=O)O)CCN(CC(=O)O)CCN(CC(=O)O)CC2)cc1 [gallium-68 labelled]; test system = SCID mice, lymphoma xenograft, kidneys; conditions = intravenous, 2 h; endpoint = tissue uptake; value = 2.4 ± 0.9 %ID/g
SMILES = Cc1ccc(=O)n(-c2ccc(NC(=O)[C@H](C)N(C)C)cc2)c1; target or system = NIH3T3; assay = cell growth or viability, CCK-8; conditions = 500 µM; endpoint = inhibition; value = 58.6%
SMILES = COc1ccc([C@@H]2CC(=O)c3c(O)cc(O[C@@H]4O[C@H](CO[C@@H]5O[C@@H](C)[C@H](O)[C@@H](O)[C@H]5O)[C@@H](O[C@H]5O[C@H](CO)[C@@H](O)[C@H](O)[C@H]5O)[C@H](O)[C@H]4O)cc3O2)cc1O; target or system = A549; assay = trypan blue exclusion; conditions = 100 µg/mL, 24 h; endpoint = cell count; value = 10800 ± 493
SMILES = COc1cc(CNC(=O)C[C@H](C)CCC=C(C)C)ccc1OCc1cn(-c2ccc(F)cc2)nn1; target or system = NCI-H460; assay = SRB; conditions = 10 µM, 48 h; endpoint = growth percent; value = 79.5%
SMILES = CCN(CC)CCSC(=S)N1CCN(C(=O)/C=C/c2coc3cc(OC)ccc3c2=O)CC1; target or system = tomato spotted wilt virus; assay = viral infection, half-leaf method; test system = Nicotiana glutinosa; conditions = 500 µg/mL; endpoint = protective effect; value = 53.7 ± 2.3%
SMILES = CC(C)[C@H](NC(=O)[C@@H]1CCCN1C(=O)[C@H](CCCNC(=N)N)NC(=O)[C@H](CS)NC(=O)[C@H](Cc1c[nH]c2ccccc12)NC(=O)[C@H](CCCNC(=N)N)NC(=O)[C@@H](Cc1ccccc1)NC(=O)[C@H](Cc1c[nH]cn1)NC(=O)[C@H](CCC(=O)O)NC(=O)[C@H](CS)NC(=O)[C@H](CS)NC(=O)[C@H](CCCCN)NC(=O)[C@@H]1CC(=O)N[C@@H](CCCNC(=N)N)C(=O)NCC(=O)N[C@@H](CC(=O)O)C(=O)N[C@H](Cc2ccc(O)cc2)C(=O)N1)C(N)=O; target or system = B16/F1; conditions = 0.1 µM, 3 h, 37 °C; scale = baseline: untreated; endpoint = clonogenic survival decrease; value = 65%
SMILES = Cc1nc(C)c(C=[N+]([O-])C(C)(C)C)nc1C; target or system = primary rat midbrain neurons; assay = Western blot, refers to: MEF2D; conditions = 100 µM, added: 20 µM MPP+; endpoint = increase in protein level; value = 48.7%
SMILES = CCCCCCCCCCCCCC[C@@H](O)[C@@H](O)[C@H](CO[C@H]1O[C@H](CO)[C@H](O)[C@H](O)[C@H]1O)NC(=O)CCCCCCc1ccccc1; target or system = human Vα24+ NKT cells; conditions = 10 ng/mL, 24 h, HeLa-CD1d co-culture, unit not given; scale = baseline: α-GalCer; endpoint = IFN-γ secretion; value = 1.28 ± 0.08
SMILES = Cc1cc([C@H](C(=O)N2C[C@H](O)C[C@H]2C(=O)N[C@@H](CC(=O)N2CCC(N3CCC(C#Cc4ccc(C(=O)N[C@H]5C(C)(C)[C@H](Oc6ccc(C#N)c(Cl)c6)C5(C)C)cc4)CC3)CC2)c2ccc(-c3scnc3C)cc2)C(C)C)on1; target or system = MDA-MB-453; assay = partial restoration of decrease, refers to: CDKN1A (p21); conditions = 24 h, added: R1881; endpoint = effective concentration; value = ≥ 100 nM
SMILES = CC(=O)N[C@H](C(=O)N[C@H](C(=O)N[C@@H](CCCNC(=N)N)C(=O)N1Cc2ccccc2C[C@H]1C(=O)N[C@@H](Cc1ccccc1)C(N)=O)C1CCCCC1)C(C)C; target or system = MBP-specific BC-3 T cells; assay = Bio-Plex multiplex, refers to: IL-12(p70); conditions = 200 µg/mL, 24 h, added: MBP87-99 antigen; endpoint = cytokine level; value = 7.2 ± 5.2 pg/mL
SMILES = CC(Cc1ccc(Cl)cc1)=C(c1ccc(Cl)cc1)c1ccc(OCCN(C)C)cc1; target or system = MDA-MB-435; assay = cell growth or viability, SRB; endpoint = GI50; value = 4.52 µM
SMILES = CC/C=C\C/C=C\C/C=C\C/C=C\C/C=C\C/C=C\CCC(=O)Nc1ccn(C2OC(CO)C(O)C2(F)F)c(=O)n1 (stereo not shown); target or system = MDA-MB-435; assay = NCI60 screen; endpoint = TGI; value = 18.1 µM
SMILES = CC(=O)OC[C@H]1O[C@@H](Sc2sc(C(=O)c3ccc(Br)cc3)c(N)c2-c2nc3ccccc3s2)[C@H](OC(C)=O)[C@@H](OC(C)=O)[C@@H]1OC(C)=O; target or system = MDA-MB-435; assay = SRB; conditions = 10 µM, 48 h; scale = baseline: untreated; endpoint = growth; value = 80.7%
SMILES = O=[N+]([O-])/C=C/c1ccc(Br)o1; target or system = KB; conditions = mean of three Leishmania species; scale = baseline: KB CC50 over Leishmania IC50; endpoint = selectivity index; value = 4.5
SMILES = COc1cc2c(OC3OCC(OC)C(OC)C3OC(=O)c3ccc(Br)cc3)c3c(c(-c4ccc5c(c4)OCO5)c2cc1OC)C(=O)OC3 (stereo not shown); target or system = FaDu; assay = western blot, refers to: N-cadherin; conditions = concentration not given, 36 h; scale = baseline: DMSO; endpoint = protein level; value = decreased
SMILES = CCn1c2ccccc2c2cc(C(O)c3cccc4ncccc34)ccc21 (stereo not shown); target or system = T98G; assay = BrdU incorporation; conditions = concentration not given, 72 h; endpoint = S-phase cells; value = inactive
SMILES = CC(=O)OC[C@H]1O[C@@H](Sc2sc(C(=O)c3ccc(C)cc3)c(N)c2-c2nc3ccccc3s2)[C@H](OC(C)=O)[C@@H](OC(C)=O)[C@H]1OC(C)=O; target or system = NCI-H226; assay = SRB; conditions = 10 µM, 48 h; scale = baseline: untreated; endpoint = growth; value = 49.8%
SMILES = CCCC[C@@H]1NC(=O)[C@@H](NC(=O)[C@H](CCC(=O)O)NC(=O)[C@H](CCC(=O)O)NC(C)=O)CCCCNC(=O)[C@@H](NC(=O)CN2CCN(CC(=O)O)CCN(CC(=O)O)CCN(CC(=O)O)CC2)CCCCNC(=O)[C@H](C(C)C)NC(=O)[C@@H]2CCCN2C(=O)[C@H](CCCNC(=N)N)NC(=O)CNC(=O)[C@H](Cc2c[nH]c3ccccc23)NC(=O)[C@H](CCCNC(=N)N)NC(=O)[C@@H](Cc2ccccc2)NC(=O)[C@H](Cc2c[nH]cn2)NC(=O)[C@H](CCC(=O)O)NC1=O [indium-111 labelled]; target or system = B16/F1; conditions = 2 h, 25 °C; endpoint = cellular uptake; value = 81.12 ± 0.28%
SMILES = N=C(N)NCCC[C@@H]1NC(=O)[C@H](Cc2c[nH]c3ccccc23)NC(=O)[C@@H](CC2CCCCC2)NC(=O)[C@@H]2CCCN2C(=O)[C@@H](NC(=O)CCc2ccccc2)CCCNC1=O; test system = C57BL/6J mouse, spinal cord; conditions = oral, 1 mg/kg, single dose, two-compartment model; endpoint = beta elimination rate constant; value = 0.33 h⁻¹
SMILES = COc1cc(CNC(=O)C[C@H](C)CCC=C(C)C)ccc1OCc1cn(-c2ccc(C#N)cc2)nn1; target or system = K562 leukaemia cells; assay = SRB; conditions = 10 µM, 48 h; endpoint = growth percent; value = 47.6%
SMILES = CCN(CC)C1CCN(Cc2cc(C#CCO)cc(I)c2O)CC1; target or system = NUGC-4 p53 wild type; conditions = 6.25 to 100 µM, 6 h; endpoint = caspase 3/7 activity; value = no effect
SMILES = O=C1Nc2ccc(Cl)cc2C1=Cc1c(Cl)[nH]c2c1ccc1ccccc12; target or system = NCI-60 panel mean; conditions = 48 h; endpoint = TGI; value = 8.32 µM
SMILES = [64Cu+2].c1ccc(CNCc2ccc(CN3CCCN4CCNCCCN(CC4)CC3)cc2)nc1; target or system = CXCR4; test system = NOD/SCID mouse, U87 and U87-stb-CXCR4 xenografts, blood; conditions = iv, 90 min, ex vivo, added: AMD3465 25 mg/kg sc before tracer; endpoint = tissue uptake; value = 1.23 ± 0.04 %ID/g
SMILES = C[C@H](CC(=O)C[C@@H](C)[C@H]1C[C@H](O)[C@@]2(C)C3=C(C(=O)C[C@]12C)[C@@]1(C)CCC(=O)C(C)(C)[C@@H]1C[C@@H]3O)C(=O)O; target or system = 3T3-L1 adipocytes; conditions = 100 µg/mL; endpoint = glucose consumption; value = 12.4 ± 0.84 mmol/L
SMILES = COC(=O)[C@H]1[C@H]2C[C@H]3O[C@@]4(CCN3C[C@H]2C[C@@H](OC(=O)c2cc(OC)c(OC)c(OC)c2)[C@@H]1OC)C(=O)Nc1cc(OC)c(-c2ccc(F)cc2)cc14; target or system = RS4;11; assay = annexin V/PI flow cytometry; conditions = 5 µM, 72 h; endpoint = late apoptotic cells; value = 48.7 ± 35.2%
SMILES = O=C1Nc2ccccc2/C1=N\Nc1nnc2n1N=C(c1ccc(Cl)cc1)CS2; target or system = MDA-MB-435; assay = cell growth or viability, SRB; conditions = 10 µM; endpoint = inhibition; value = 19%
SMILES = COc1ccc(C2CC(c3ccc(C)cc3)=Nc3ccccc3S2)cc1OC (stereo not shown); test system = Wistar rat, STZ-induced diabetes; conditions = oral, 20 mg/kg once daily, day 14; endpoint = body weight; value = 180 ± 4.62 g
SMILES = COc1ccc(C2=Nn3c(NN=C4C(=O)N(Cc5ccccc5)c5ccc(Cl)cc54)nnc3SC2)cc1; target or system = SF-295; assay = cell growth or viability, SRB; conditions = 10 µM; endpoint = inhibition; value = 30%
SMILES = O=C(OCc1cccc(O)c1O)c1ccc(O)c(CO)c1; target or system = p47phox knockout mouse CMEC; assay = Amplex red; conditions = 5 µM, 24 h; endpoint = H2O2 production; value = no effect
SMILES = COc1ccc([C@@H]2CC(=O)c3c(O)cc(O[C@@H]4O[C@H](CO[C@@H]5O[C@@H](C)[C@H](O)[C@@H](O)[C@H]5O)[C@@H](O)[C@H](O)[C@H]4O)cc3O2)cc1O; target or system = A549; assay = cell migration, scratch; conditions = 100 µg/mL, 24 h; endpoint = gap closure; value = 4.69 ± 0.63%
SMILES = COc1cc(CNC(=O)C[C@H](C)CCC=C(C)C)ccc1OCc1cn(-c2ccccc2F)nn1; target or system = NCI-H226; assay = SRB; conditions = 10 µM, 48 h; endpoint = growth percent; value = 73.3%
SMILES = COc1ccc(C2CC(c3ccc(C)cc3)=Nc3ccccc3S2)cc1 (stereo not shown); test system = Wistar rat, STZ-induced diabetes; conditions = oral, 20 mg/kg once daily, day 1; endpoint = body weight; value = 198 ± 4.66 g
SMILES = COc1cc(CNC(=O)C[C@H](C)CCC=C(C)C)ccc1OCc1cn(-c2cccc(Cl)c2)nn1; target or system = UACC-62 melanoma cells; assay = SRB; conditions = 10 µM, 48 h; endpoint = growth percent; value = 108%
SMILES = NCCCCCO[C@H]1O[C@H](COS(=O)(=O)O)[C@@H](O[C@@H]2O[C@@H](C(=O)O)[C@@H](O[C@H]3O[C@H](COS(=O)(=O)O)[C@@H](O[C@@H]4O[C@@H](C(=O)O)[C@@H](O[C@H]5O[C@H](COS(=O)(=O)O)[C@@H](O[C@@H]6O[C@@H](C(=O)O)[C@@H](O[C@H]7O[C@H](COS(=O)(=O)O)[C@@H](O[C@@H]8O[C@@H](C(=O)O)[C@@H](O)[C@H](O)[C@H]8OS(=O)(=O)O)[C@H](O)[C@H]7NS(=O)(=O)O)[C@H](O)[C@H]6OS(=O)(=O)O)[C@H](O)[C@H]5NS(=O)(=O)O)[C@H](O)[C@H]4OS(=O)(=O)O)[C@H](O)[C@H]3NS(=O)(=O)O)[C@H](O)[C@H]2OS(=O)(=O)O)[C@H](O)[C@H]1NS(=O)(=O)O; target or system = human corneal epithelial cells; assay = cell migration, scratch; conditions = concentration not given, 24 h; endpoint = wound closure; value = 50%
SMILES = COc1ccc2c(c1CC=C(C)C)O[C@H]1c3cc(CC=C(C)C)c(O)cc3OC[C@@H]21; target or system = 3T3-L1 adipocytes; assay = activator; conditions = up to 100 µM; endpoint = glucose consumption; value = inactive
SMILES = Cc1cc(/C=C2\CN(C(C)C)C/C(=C\c3cc(C)c(O)c(C)c3)C2=O)cc(C)c1O; target or system = HeLa; assay = cell viability, MTT; conditions = 24 h; endpoint = maximum inhibition; value = 45.1 ± 9.41%
